Published values pooled from the literature.
Lines come from different studies, so protocols differ. Several values in a cell are separate wells, animals, samples, runs or records. Numbers after ± are the reported error. Converted amounts (≈) assume the structure as drawn.

SMILES | test | test system | conditions | scale | quantity | result
CN1CCC[C@]1(C)/C=C/S(=O)(=O)NC(=O)Nc1c2c(cc3c1CCC3)CC=C2 | – | human, plasma | oral, 100 mg twice daily of parent drug, metabolite of dosed drug | reference: day 14 over day 1 | AUC(0-24) accumulation ratio | 1.4
[2H]C([2H])([18F])Oc1cc(C(=O)OCC2CCN(CCCC)CC2)ccc1N | PET | rhesus monkey, whole brain | dose not given, average | – | peak radioactivity | 3.1 SUV
N#Cc1ccnc(N2C(=O)CC[C@H]2C(=O)N(c2cncc(F)c2)[C@H](C(=O)NC2CC(F)(F)C2)c2ccccc2Cl)c1 | – | dog liver microsomes | – | – | metabolic stability | stable
O=C(Nc1cnccc1-c1ccc([18F])cc1)c1ccnc(NC(=O)C2CC2)c1 | – | FVB/NJ mice (both sexes), feces | intravenous, dose not given, 120 min, added: tariquidar 15 mg/kg i.v. pre-dose | – | SUV | 6.04
N[C@@H](CC(=O)O)C(=O)OC(C(=O)O)c1ccc(Br)cc1[N+](=O)[O-] (mixture of isomers) | 1H NMR, dark | 50 mM sodium phosphate | concentration not given, pH 5.8, room temperature, 12.5% DMSO-d6 | – | hydrolysis half-life, B isomer | 18 ± 1 h
CC(C)(O)c1ncc([S@](N)(=O)=NC(=O)Nc2c3c(cc4c2CCC4)CCC3)s1 | – | healthy human | oral, 3 mg single dose, capsule formulation | – | gastrointestinal adverse events | 17%
CN1CCC[C@]1(C)/C=C/S(=O)(=O)NC(=O)Nc1c2c(cc3c1CCC3O)CCC2 (stereo partly drawn) | – | human, plasma | oral, 50 mg twice daily of parent drug, day 14, metabolite of dosed drug | – | AUC(0-24) | 676 µg·h/mL
CCCCN1C(=O)c2cccc3c(NCCCN4CCOCC4)ccc(c23)C1=O | – | DMSO | – | – | fluorescence quantum yield | 0.1
CCOC(=O)C(CC)(CCCSCCOCCOCCNC(=O)OC(C)(C)C)NC(=O)c1ccc(C2CC2)c(Cc2ccc(F)cc2)n1 (racemic) | – | aqueous buffer with DMSO | – | – | kinetic solubility | < 0.1 µg/mL
Cc1noc(C)c1Cn1cc(N2C(=O)CN(Cc3cccc(O[C@@H]4O[C@H](C(=O)O)[C@@H](O)[C@H](O)[C@H]4O)c3)C2=O)cn1 | – | rat Sprague-Dawley male, plasma | oral, 100 mg/kg of parent drug, 4 h | – | plasma concentration | 31.8 ± 16.8 ng/mL
COC1CN([C@H]2CC[C@H]([C@@]3(C)Oc4c(Cl)cc(C(=O)NCc5c(SC)cc(C)[nH]c5=O)c(C)c4O3)CC2)C1 | – | female CB17 SCID mice, HT-1376 xenograft, plasma | 75 mg/kg, day 1 | – | Tmax | 1.33 h
CCc1cnc(NC(=O)c2cc(S(=O)(=O)N3CCOCC3)ccc2N(C)C2CCCC2)s1 | – | mouse, blood | 10 mg/kg, 3 doses | – | Eosinophils differential count | 2.3%
[123I]c1ccc2nc(-c3ccc(-n4ccnn4)nc3)cn2c1 | – | male Wistar rat, muscle | intravenous, 4 MBq, 3 h | – | tracer uptake | 0.019 %ID/g
C=CC(=O)Nc1cc(Nc2nccc(-c3cn(C)c4ccccc34)n2)c(OC)cc1N(C)CCNC | – | human, dried blood spots | 10 d, on ice, high QC level | – | remaining compound | 69.6%
Cc1nc(N)nc2c1C(=O)N[C@@H](c1ccc(F)cc1-c1cccc(O[11CH3])n1)C2 | ex vivo biodistribution | mice, U87 subcutaneous xenograft, lungs | 60 min post-injection, baseline, vehicle pre-treatment | – | SUV | 2 ± 0.4
O=c1c2ccccc2[se]n1CCCCCCn1[se]c2ccccc2c1=O | shake-flask, RP-HPLC | glycerine | 24 h, 25 °C | – | solubility | 40 ± 1 µg/mL (≈ 83.6 µM)
CCCC[C@H](NC(=O)CNC(=O)CNC(=O)[C@H](CCCCNC(=O)[C@H](CC(=O)O)NC(=O)C(C)c1ccc(CC(C)C)cc1)NC(=O)CN1CCN(CC(=O)O)CCN(CC(=O)O)CCN(CC(=O)O)CC1)C(=O)N[C@H]1CC(=O)NCCCC[C@@H](C(N)=O)NC(=O)[C@H](Cc2c[nH]c3ccccc23)NC(=O)[C@H](CCCNC(=N)N)NC(=O)[C@@H](Cc2ccccc2)NC(=O)[C@H](Cc2c[nH]cn2)NC1=O (stereo partly drawn) [lutetium-177 labelled] | – | C57 mice, tumour | 2 h | reference: kidney | tumour-to-tissue ratio | 2.13
CCC1=[N+]2N=C(/C=C/C=C/c3ccc(C(F)(F)F)cc3)C(=O)O[B-]2(c2ccccc2)Oc2cc(N(CC)CC)ccc21 (stereo not drawn) | UV/vis decay | aqueous buffer | – | – | hydrolysis activation energy | 24.9 kcal/mol
CC(C(=O)O)n1nc(Cn2cc3cc(OCC[18F])c(Cl)cc3n2)c2ccccc2c1=O (racemic) | – | rat, lung | 5 min | – | tracer uptake | 0.37 %ID/g
O=C(NS(=O)(=O)c1cccs1)c1cc2ccccc2n1Cc1ccc(Br)c2ccccc12 | – | KM mouse, chronic hyperuricaemia model | dose not given, day 23 | – | body weight | 37 g and 36.4 g and 38.4 g and 39.8 g and 34.4 g and 36.8 g
C=C(NC(=O)c1csc(-c2nc3c(cc2O)-c2nc(cs2)C(=O)NC(C(C)O)C(=O)NC(=C(C)OC)c2nc(cs2)C(=O)NC2c4nc(cs4)C(=O)NC(COC(=O)c4c5c6c(cccc6n4O)COC(=O)C(OC4CC(C)(O)C(N(C)C)C(C)O4)C2OC5)c2nc-3cs2)n1)C(N)=O (stereo not drawn) | – | ICR mice, Streptococcus pneumoniae ATCC 49169 infected, immunocompromised, blood | intravenous, 4 mg/kg three times daily | – | AUC(0-t) | 0.226 µM·h
N=C(N)NCCC[C@@H]1NC(=O)[C@H](CO)NC(=O)[C@@H](NC(=O)[C@H](CO)NC(=O)[C@H](CO)NC(=O)[C@H](Cc2c[nH]c3ccccc23)NC(=O)CNC(=O)[C@H](CO)NC(=O)[C@@H](N)Cc2c[nH]c3ccccc23)CSSC[C@@H](C(=O)NCC(=O)O)NC(=O)[C@H](CO)NC1=O | LC-MS/MS | human, cerebrospinal fluid | dose not given, lumbar puncture after treatment | – | CSF concentration | not detected
Cc1cccc(-c2ccc3nc(NC(=O)C4CCCCC4)nn3c2)c1 | – | mouse liver microsomes | 30 min | – | metabolic turnover | 100%
C/C(N)=N/C(=N\S(=O)(=O)c1ccc(C(F)(F)F)cc1)N1C[C@H](c2ccccc2)C(c2ccc(Cl)cc2)=N1 | – | male C57BL/6 mouse, lung | intravenous, 10 mg/kg | reference: lung over plasma | tissue to plasma AUC ratio | 32
CC1=NN(c2ccccc2)C(=O)/C1=C\c1ccc(-c2cc(C(=O)O)ccc2Cl)o1 | dynamic light scattering | buffer | 20 µM | – | hydrodynamic radius | 3.66 nm
CC[C@H](C)[C@@H](C(=O)N[C@@H](CC(C)C)C(=O)N[C@@H](CO)C(=O)N[C@@H](CO)C(=O)N[C@H](C(=O)N[C@@H](CCC(=O)O)C(=O)N[C@H](C(=O)NCC(=O)N[C@@H](CO)C(=O)N[C@@H](CC(N)=O)C(=O)N[C@H](C(=O)N1C[C@H](O)C[C@H]1C(N)=O)[C@@H](C)O)C(C)C)[C@@H](C)O)N(C)C(=O)[C@H](C)NC(=O)CN(C)C(=O)[C@H](Cc1ccccc1)NC(=O)[C@H](CO)NC(=O)[C@H](CO)NC(=O)[C@H](CCCNC(=N)N)NC(=O)[C@H](CCC(N)=O)NC(=O)[C@H](CC(C)C)NC(=O)[C@H](Cc1ccccc1)NC(=O)[C@H](CCCC(=O)O)NC(=O)[C@H](C)NC(=O)[C@H](CC(C)C)NC(=O)[C@H](CCCNC(=N)N)NC(=O)[C@H](CCC(=O)O)NC(=O)[C@@H](NC(=O)[C@H](C)NC(=O)[C@@H]1CCCCNC(=O)C[C@H](NC(=O)[C@H](CCCNC(=N)N)NC(=O)CC[C@H](NC(=O)CCCCCCCCCCCCCCCCCCC(=O)O)C(=O)O)C(=O)NCC(=O)N[C@@H]([C@@H](C)O)C(=O)N[C@@H](C)C(=O)N[C@@H]([C@@H](C)O)C(=O)N1)[C@@H](C)O | DLS | phosphate buffer, propylene glycol, mannitol, NaCl | pH 6.1, 25 °C | – | particle size | 2.2 to 3.5 nm
CC(=O)N[C@H](CC(=O)O)C(=O)N[C@H](Cc1c[nH]c2ccccc12)C(=O)N[C@H](Cc1ccccc1)C(=O)N[C@H](CCCCN)C(=O)N[C@H](C)C(=O)N[C@H](Cc1ccccc1)C(=O)N[C@H](Cc1ccc(O)cc1)C(=O)N[C@H](CC(=O)O)C(=O)N[C@H](CCCCN)C(=O)N[C@@H](C(=O)N[C@H](C)C(=O)N[C@H](CCC(=O)O)C(=O)N[C@H](CCCCN)C(=O)N[C@H](Cc1ccccc1)C(=O)N[C@H](CCCCN)C(=O)N[C@H](CCC(=O)O)C(=O)N[C@H](C)C(=O)N[C@H](Cc1ccccc1)C(N)=O)C(C)C | – | human, plasma | concentration not given | – | time to return to baseline | ≥ 8 h
